Measurements collected from several papers.
Numbered parts are unrelated; each lists some results of a single study. Positions count from the first letter of the parent shown.

Sample 1
Target: CEP164, C-terminal peptide (human)
Method: DHFR complementation, deep sequencing
Sample: yeast
Setting: single substitutions, model-inferred values
Relative to: wild type
Reading: higher = weaker binding
Quantity: binding free energy change
Parent: PDZK1, PDZ domain 2 (human); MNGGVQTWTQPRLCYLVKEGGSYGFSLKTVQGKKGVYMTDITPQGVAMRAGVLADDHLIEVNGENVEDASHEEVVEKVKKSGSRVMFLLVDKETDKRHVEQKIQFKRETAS; partner HNRVKVYRF
K28W: -0.368 kcal/mol
A47C: 1.75 kcal/mol
E19P: 0.589 kcal/mol
D56N: 0.459 kcal/mol
D55V: 0.704 kcal/mol
G45F: 1.49 kcal/mol
R84E: -0.0787 kcal/mol
D95T: -0.149 kcal/mol

Sample 2
Target: TAR DNA-binding protein 43, full length, His tag (TARDBP, Homo sapiens, UniProt Q13148, residues 1-414)
Method: RNA Bind-n-Seq
Molecule type: RNA
Sample: in vitro
Tested at: 20 nM
Setting: 6-mer, flanks averaged, single round
With: 150 mM LiCl
Relative to: input library
Reading: higher = stronger binding
Quantity: 6-mer enrichment (R)
UACCUG: 0.865
GUCGGU: 1.14
AACCCA: 0.893
ACAACU: 0.838
CGAAGU: 0.882
AGGCCA: 0.908
CCCUGA: 0.977
AGUGCG: 1.18

Sample 3
Target: JUND, bZIP domain (human)
Method: DHFR protein complementation
Sample: yeast
Setting: single substitutions, most at no-binding floor
Relative to: wild-type JUN-FOS pair
Reading: higher = stronger binding
Quantity: binding fitness
Parent: JUN, bZIP domain (human); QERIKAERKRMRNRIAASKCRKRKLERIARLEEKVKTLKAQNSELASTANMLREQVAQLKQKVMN
L45N: -1.28 natural log
L45V: -1.41 natural log
L52Q: -1.42 natural log
L45W: -1.36 natural log
R53Y: -1.3 natural log
V35W: -1.29 natural log
A46P: -1.53 natural log
A46D: -1.36 natural log

Single results of other studies
Parent: PafA, mature enzyme, eGFP fusion (Elizabethkingia meningoseptica, UniProt Q9KJX5); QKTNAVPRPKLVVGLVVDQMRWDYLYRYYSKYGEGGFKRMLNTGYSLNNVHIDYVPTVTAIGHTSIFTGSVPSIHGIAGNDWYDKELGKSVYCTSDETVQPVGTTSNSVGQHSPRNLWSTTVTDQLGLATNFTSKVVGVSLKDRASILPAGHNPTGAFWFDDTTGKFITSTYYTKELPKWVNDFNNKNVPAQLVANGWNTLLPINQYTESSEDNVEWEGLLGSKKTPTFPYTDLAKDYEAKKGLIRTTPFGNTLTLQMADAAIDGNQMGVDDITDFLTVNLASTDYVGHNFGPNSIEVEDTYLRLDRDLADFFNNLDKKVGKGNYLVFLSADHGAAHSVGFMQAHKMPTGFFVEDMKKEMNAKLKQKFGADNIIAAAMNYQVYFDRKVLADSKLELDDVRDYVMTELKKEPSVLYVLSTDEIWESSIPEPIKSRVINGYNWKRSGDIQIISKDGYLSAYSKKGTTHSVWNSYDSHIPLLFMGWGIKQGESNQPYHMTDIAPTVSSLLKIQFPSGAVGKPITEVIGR
A129G
oxyanion analog dissociation constant (tungstate, free oxyanion; microfluidic competitive inhibition; in vitro, cell-free expressed; not given, derived from inhibition constants, unchanged parent 2230 nM; lower = stronger binding): 2.05 µM
